Measurements pooled from the literature.
Compare with care: the assays were run in different laboratories. ± marks the error that the study gave.

C[C@H]1O[C@H](OC[C@H]2O[C@@H](Oc3c(-c4ccc(O)cc4)oc4cc(O)cc(O)c4c3=O)[C@H](O)[C@@H](O)[C@@H]2O)[C@@H](O)[C@@H](O)[C@@H]1O
IC50 (HIV-1; viral infection; TZM-bl, BaL (CCR5-tropic); 48 h): > 100 µM

CCCCC[C@H](O)/C=C/[C@@H]1[C@@H](C/C=C\CCCC(=O)O)[C@@H](O)C[C@H]1O
IC50 (Leishmania donovani; intracellular amastigote growth, alamarBlue; THP-1-derived macrophages; 48 h): > 100 µM

O=C(Nc1ccnc(C(F)(F)F)c1)Nc1cccc2c1OC(F)(F)O2
IC50 (Leishmania donovani; MHOM/ET/67/L-82, axenic amastigotes): 1 µM

COc1cc(OC)c2c(=O)cc(-c3ccccc3Br)oc2c1-c1c(OC)cc(OC)c2c(=O)cc(-c3ccccc3Br)oc12
IC50 (Toxoplasma gondii; parasite proliferation, 3H-uracil incorporation; ME49 tachyzoites): 11.4 ± 0.63 µM

CC(C)Oc1ccc(-c2nc(-c3cccc4c3CC[C@@H]4NCCO)no2)cc1C#N.Cl
IC50 (Clostridioides difficile; ATCC 43255; spores): 16 ± 1.23 µg/mL

CCCCC[C@H](O)CC(=O)CCc1ccc(O)c(OC)c1
IC50 (Pseudomonas aeruginosa; biofilm formation; PA14; static): 46 µM

OC[C@H]1O[C@@H](Oc2cc3c(O)cc(O)cc3[o+]c2-c2ccc(O)c(O)c2)[C@H](O)[C@@H](O)[C@@H]1O
IC50 (HIV-1; viral infection; TZM-bl, BaL (CCR5-tropic); 48 h): > 100 µM

COc1cc(C#CC(=O)CC(C)C)ccc1O
IC50 (Pseudomonas aeruginosa; biofilm formation; PA14; static): 17 µM

C[C@@H]1[C@H](O)[C@@H](C)/C=C/C=C/C=C/C=C/C=C/C=C/C=C/[C@H](O[C@@H]2O[C@H](C)[C@@H](O)[C@H](N)[C@@H]2O)C[C@@H]2O[C@](O)(C[C@@H](O)C[C@@H](O)[C@H](O)CC[C@@H](O)C[C@@H](O)CC(=O)O[C@H]1C)C[C@H](O)[C@H]2C(=O)O
IC50 (Leishmania donovani; parasite survival, MTT; wild-type axenic amastigotes; 48 h): 0.2 ± 0.05 µM

c1ccc(-c2ccc3c(c2)NC(C2Nc4cc(-c5ccccc5)ccc4O2)O3)cc1 (stereo not drawn)
IC50 (Leishmania donovani; parasite growth; THP-1-derived macrophages, intracellular amastigotes; 48 h): 14.9 ± 6.78 µM

COc1cc(-c2[o+]c3cc(O)cc(O)c3cc2O[C@@H]2O[C@H](CO)[C@@H](O)[C@H](O)[C@H]2O)ccc1O
IC50 (HIV-1; viral infection; TZM-bl, BaL (CCR5-tropic); 48 h): > 100 µM

S=C(S)N1CCCC1
EC50 (Toxoplasma gondii; parasite growth; HFF, bradyzoite, alkaline-induced): 622 µM

C[C@@H]1O[C@@H](OC[C@H]2O[C@@H](Oc3cc4c(O)cc(O)cc4[o+]c3-c3ccc(O)c(O)c3)[C@H](O)[C@@H](O)[C@@H]2O)[C@H](O)[C@H](O)[C@H]1O
IC50 (HIV-1; viral infection; TZM-bl, NL4-3 (CXCR4-tropic); 48 h): > 100 µM

COc1cc(C)c(-c2c(C)cc(OC)c3c(=O)cc(-c4ccc(C(F)(F)F)cc4)oc23)c2oc(-c3ccc(C(F)(F)F)cc3)cc(=O)c12
IC50 (Toxoplasma gondii; parasite proliferation, 3H-uracil incorporation; ME49 tachyzoites): 10.4 ± 2.99 µM

COC(=O)C1=C(C)NC(C)=C(C(=O)OC(C)(C)CN(C)CCC(c2ccccc2)c2ccccc2)C1c1cccc([N+](=O)[O-])c1 (stereo not drawn)
EC90 (Toxoplasma gondii; parasite growth; HFF, bradyzoite, alkaline-induced): 17.4 µM

COc1cc(C)c(-c2c(C)cc(OC)c3c(=O)cc(-c4ccccc4Br)oc23)c2oc(-c3ccccc3Br)cc(=O)c12
IC50 (Toxoplasma gondii; parasite proliferation, 3H-uracil incorporation; ME49 tachyzoites): 39.6 ± 8.25 µM

O=C(/C=C/c1ccc(O)c(O)c1)O[C@@H]1C[C@@](O)(C(=O)O)C[C@@H](O)[C@@H]1O
IC50 (HIV-1; viral infection; TZM-bl, BaL (CCR5-tropic); 48 h): > 100 µM

COc1cccc(C(=O)C#Cc2ccc(O)c(OC)c2)c1
IC50 (Pseudomonas aeruginosa; biofilm formation; PA14; static): 16 µM

Repeated from above:
OC[C@H]1O[C@@H](Oc2cc3c(O)cc(O)cc3[o+]c2-c2ccc(O)c(O)c2)[C@H](O)[C@@H](O)[C@@H]1O
IC50 (HIV-1; viral infection; TZM-bl, BaL (CCR5-tropic); 48 h): > 100 µM
